{"data": "Assay results from different studies", "action": "agonist", "GLP1R": "Glucagon-like peptide 1 receptor (GLP1R, Homo sapiens, UniProt P43220)", "note": "Protocols differ between the studies behind these lines.", "sequence of UniProt P43220 (whole entry, looked up)": "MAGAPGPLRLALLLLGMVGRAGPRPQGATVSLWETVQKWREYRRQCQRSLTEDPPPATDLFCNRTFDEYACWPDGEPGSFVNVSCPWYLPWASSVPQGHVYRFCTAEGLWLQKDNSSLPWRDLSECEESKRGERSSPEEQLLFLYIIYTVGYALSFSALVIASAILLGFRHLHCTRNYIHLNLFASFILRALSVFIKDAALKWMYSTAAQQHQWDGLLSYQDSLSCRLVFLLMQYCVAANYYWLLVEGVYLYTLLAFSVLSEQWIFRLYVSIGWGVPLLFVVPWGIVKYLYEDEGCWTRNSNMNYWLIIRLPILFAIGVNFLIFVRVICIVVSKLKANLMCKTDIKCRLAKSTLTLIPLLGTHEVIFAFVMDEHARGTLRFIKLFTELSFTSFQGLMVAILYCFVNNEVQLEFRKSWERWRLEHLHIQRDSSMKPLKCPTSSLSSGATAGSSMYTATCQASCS"}
{"Compound": "CC(C)(C)C(c1ccccc1)n1cc(CNc2ccc(C(=O)NCCC(=O)O)cc2)nn1 (centres unmarked)", "target": "GLP1R", "cell line": "human cells", "EC50 [nM]": 4680}
{"Compound": "CC[C@H](C)[C@H](NC(=O)[C@H](Cc1ccccc1)NC(=O)[C@H](CCC(=O)O)NC(=O)[C@H](CCCCN)NC(=O)[C@H](C)NC(=O)[C@H](C)NC(=O)[C@H](CCC(N)=O)NC(=O)CNC(=O)[C@H](CCC(=O)O)NC(=O)[C@H](CC(C)C)NC(=O)[C@H](Cc1ccc(O)cc1)NC(=O)[C@H](CO)NC(=O)[C@H](CO)NC(=O)[C@@H](NC(=O)[C@H](CC(=O)O)NC(=O)[C@H](CO)NC(=O)[C@@H](NC(=O)[C@H](Cc1ccccc1)NC(=O)[C@@H](NC(=O)CNC(=O)[C@H](CCC(=O)O)NC(=O)[C@H](C)NC(=O)[C@H](Cc1c[nH]cn1)NCC12CC3CC(CC(C3)C1)C2)[C@@H](C)O)[C@@H](C)O)C(C)C)C(=O)N[C@@H](C)C(=O)N[C@@H](Cc1c[nH]c2ccccc12)C(=O)N[C@@H](CC(C)C)C(=O)N[C@H](C(=O)N[C@@H](CCCCN)C(=O)NCC(=O)N[C@@H](CCCNC(=N)N)C(N)=O)C(C)C", "target": "GLP1R", "observed": "reporter gene", "method": "luciferase", "EC50 [nM]": 0.0065}
{"Compound": "Cc1[nH]c2c(Cl)cc(Cl)cc2c1CCn1cc(CNc2ccc(C(=O)NCCC(=O)O)cc2)nn1", "target": "GLP1R", "cell line": "human cells", "EC50 [nM]": 617}
{"Compound": "CCN[C@@H](Cc1c[nH]cn1)C(=O)N[C@@H](C)C(=O)N[C@@H](CCC(=O)O)C(=O)NCC(=O)N[C@H](C(=O)N[C@@H](Cc1ccccc1)C(=O)N[C@H](C(=O)N[C@@H](CO)C(=O)N[C@@H](CC(=O)O)C(=O)N[C@H](C(=O)N[C@@H](CO)C(=O)N[C@@H](CO)C(=O)N[C@@H](Cc1ccc(O)cc1)C(=O)N[C@@H](CC(C)C)C(=O)N[C@@H](CCC(=O)O)C(=O)NCC(=O)N[C@@H](CCC(N)=O)C(=O)N[C@@H](C)C(=O)N[C@@H](C)C(=O)N[C@@H](CCCCN)C(=O)N[C@@H](CCC(=O)O)C(=O)N[C@@H](Cc1ccccc1)C(=O)N[C@H](C(=O)N[C@@H](C)C(=O)N[C@@H](Cc1c[nH]c2ccccc12)C(=O)N[C@@H](CC(C)C)C(=O)N[C@H](C(=O)N[C@@H](CCCCN)C(=O)NCC(=O)N[C@@H](CCCNC(=N)N)C(N)=O)C(C)C)[C@@H](C)CC)C(C)C)[C@@H](C)O)[C@@H](C)O", "target": "GLP1R", "observed": "reporter gene", "method": "luciferase", "EC50 [nM]": 0.00631}
{"Compound": "COc1cc(C2C(NC(=O)c3ccc(NC(=O)OC(C)(C)C)cc3)(C(=O)O)C(c3ccc(OC(=O)c4cccs4)c(OC)c3)C2(NC(=O)c2ccc(NC(=O)OC(C)(C)C)cc2)C(=O)O)ccc1OC(=O)c1cccs1 (centres unmarked)", "target": "Glucagon-like peptide 1 receptor, with β-arrestin 2 (GLP1R, Homo sapiens, UniProt P43220)", "observed": "β-arrestin 2 recruitment", "method": "BRET", "EC50 [nM]": 22900}
{"Compound": "CC[C@H](C)[C@H](NC(=O)[C@H](Cc1ccccc1)NC(=O)[C@H](CCC(=O)O)NC(=O)[C@H](CCCCN)NC(=O)[C@H](C)NC(=O)[C@H](C)NC(=O)[C@H](CCC(N)=O)NC(=O)CNC(=O)[C@H](CCC(=O)O)NC(=O)[C@H](CC(C)C)NC(=O)[C@H](Cc1ccc(O)cc1)NC(=O)[C@H](CO)NC(=O)[C@H](CO)NC(=O)[C@@H](NC(=O)[C@H](CC(=O)O)NC(=O)[C@H](CO)NC(=O)[C@@H](NC(=O)[C@H](Cc1ccccc1)NC(=O)[C@@H](NC(=O)CNC(=O)[C@H](CCC(=O)O)NC(=O)[C@H](C)NC(=O)[C@H](Cc1c[nH]cn1)NCc1ccccc1)[C@@H](C)O)[C@@H](C)O)C(C)C)C(=O)N[C@@H](C)C(=O)N[C@@H](Cc1c[nH]c2ccccc12)C(=O)N[C@@H](CC(C)C)C(=O)N[C@H](C(=O)N[C@@H](CCCCN)C(=O)NCC(=O)N[C@@H](CCCNC(=N)N)C(N)=O)C(C)C", "target": "GLP1R", "observed": "reporter gene", "method": "luciferase", "EC50 [nM]": 0.00398}
{"Compound": "CC(C)C[C@H](NC(=O)[C@H](Cc1ccccc1)NC(=O)[C@H](CCCNC(=N)N)NC(=O)[C@H](CCC(N)=O)NC(=O)[C@H](CC(C)C)NC(=O)C(C)(C)NC(=O)[C@H](C)NC(=O)[C@H](CCC(=O)O)NC(=O)[C@H](CCC(=O)O)NC(=O)[C@H](CCCCNC(=O)COCCOCCNC(=O)COCCOCCNC(=O)CC[C@H](NC(=O)CCCCCCCCCCCCCCCCCCC(=O)O)C(=O)O)NC(=O)[C@H](CC(C)C)NC(=O)[C@H](Cc1ccc(O)cc1)NC(=O)[C@H](CO)NC(=O)[C@@H](NC(=O)[C@H](CC(=O)O)NC(=O)[C@H](CO)NC(=O)[C@@H](NC(=O)[C@H](Cc1ccccc1)NC(=O)[C@@H](NC(=O)CNC(=O)[C@H](CCC(=O)O)NC(=O)C(C)(C)NC(=O)[C@@H](N)Cc1c[nH]cn1)[C@@H](C)O)[C@@H](C)O)C(C)C)C(=O)N[C@@H](CCC(=O)O)C(=O)N[C@@H](Cc1c[nH]cn1)C(=O)N[C@@H](CC(C)C)C(=O)N[C@H](C(N)=O)C(C)C", "target": "GLP1R", "observed": "cAMP", "EC50 [nM]": 0.018}
{"Compound": "CC(C)(Cn1cc(CNc2ccc(C(=O)NCCC(=O)O)cc2)nn1)c1c[nH]c2ccccc12", "target": "GLP1R", "cell line": "human cells", "EC50 [nM]": 1770}
{"Compound": "CC(C)C[C@H](NC(=O)CNC(=O)[C@H](CCC(N)=O)NC(=O)[C@H](CC(C)C)NC(=O)[C@H](CC(C)C)NC(=O)[C@H](CCCNC(=N)N)NC(=O)[C@H](CCC(N)=O)NC(=O)[C@H](CC(C)C)NC(=O)[C@H](CCCNC(=N)N)NC(=O)[C@H](C)NC(=O)CNC(=O)[C@H](CCC(=O)O)NC(=O)[C@H](CCCNC(=N)N)NC(=O)[C@H](CC(C)C)NC(=O)[C@H](CCCNC(=N)N)NC(=O)[C@H](CO)NC(=O)[C@H](CC(C)C)NC(=O)[C@H](CCC(=O)O)NC(=O)[C@H](CO)NC(=O)[C@@H](NC(=O)[C@H](Cc1ccccc1)NC(=O)[C@@H](NC(=O)CNC(=O)[C@H](CC(=O)O)NC(=O)[C@H](CO)NC(=O)[C@@H](N)Cc1c[nH]cn1)[C@@H](C)O)[C@@H](C)O)C(=O)N[C@H](C(N)=O)C(C)C", "target": "GLP1R", "observed": "cAMP", "EC50 [nM]": 2300}
{"Compound": "CC[C@H](C)[C@H](NC(=O)[C@H](Cc1ccccc1)NC(=O)[C@H](CCC(=O)O)NC(=O)[C@H](CCCCN)NC(=O)[C@H](C)NC(=O)[C@H](C)NC(=O)[C@H](CCC(N)=O)NC(=O)[C@H](CCC(=O)O)NC(=O)[C@H](CC(=O)O)NC(=O)[C@H](CC(C)C)NC(=O)[C@H](Cc1ccc(O)cc1)NC(=O)[C@H](CCCCN)NC(=O)[C@H](CO)NC(=O)[C@H](Cc1ccc(O)cc1)NC(=O)[C@H](CC(=O)O)NC(=O)[C@H](CO)NC(=O)[C@@H](NC(=O)[C@H](Cc1ccccc1)NC(=O)[C@@H](NC(=O)CNC(=O)[C@H](CCC(N)=O)NC(=O)[C@H](CO)NC(=O)[C@@H](N)Cc1cnc[nH]1)[C@@H](C)O)[C@@H](C)O)C(=O)N[C@@H](C)C(=O)N[C@@H](Cc1c[nH]c2ccccc12)C(=O)N[C@@H](CC(C)C)C(=O)N[C@@H](CCSC)C(=O)N[C@@H](CC(N)=O)C(=O)N[C@H](C(N)=O)[C@@H](C)O", "target": "GLP1R", "observed": "cAMP", "method": "TR-FRET", "EC50 [nM]": 0.00891}
{"Compound": "CC[C@H](C)[C@H](NC(=O)[C@@H](NC(=O)[C@H](CC(N)=O)NC(=O)[C@H](CC(=O)O)NC(=O)[C@H](CO)NC(=O)[C@H](CCCCN)NC(=O)[C@H](CCCCN)NC(=O)[C@H](CCC(=O)O)NC(=O)[C@H](CCCNC(=N)N)NC(=O)[C@H](CCCNC(=N)N)NC(=O)[C@H](C)NC(=O)[C@H](CC(C)C)NC(=O)[C@H](CC(C)C)NC(=O)[C@H](Cc1c[nH]c2ccccc12)NC(=O)[C@H](CCC(=O)O)NC(=O)[C@@H](NC(=O)[C@H](Cc1ccccc1)NC(=O)[C@H](CC(N)=O)NC(=O)[C@H](CCCCN)NC(=O)[C@H](CCCCN)NC(=O)[C@H](CC(C)C)NC(=O)[C@H](CCSC)NC(=O)[C@H](CC(N)=O)NC(=O)[C@H](CC(=O)O)NC(=O)[C@H](CCSC)NC(=O)[C@@H](NC(=O)[C@H](CCCNC(=N)N)NC(=O)[C@H](CO)NC(=O)[C@H](Cc1ccc(O)cc1)NC(=O)[C@H](CC(=O)O)NC(=O)[C@H](CO)NC(=O)[C@H](C)NC(=O)[C@H](CC(C)C)NC(=O)[C@@H](NC(=O)[C@H](C)NC(=O)[C@H](CCC(=O)O)NC(=O)[C@H](CO)NC(=O)[C@@H](N)Cc1ccc(O)cc1)[C@@H](C)O)[C@@H](C)O)C(C)C)C(C)C)C(=O)N[C@@H](CCC(=O)O)C(=O)N1CCC[C@H]1C(=O)N[C@@H](Cc1ccc(O)cc1)C(=O)O", "target": "GLP1R", "observed": "reporter gene", "method": "CRE-luciferase reporter", "cell line": "HEK-293T", "time": "12 h", "EC50 [nM]": "> 1000"}
{"note": "Some of these lines once more:"}
{"Compound": "CC(C)C[C@H](NC(=O)[C@H](Cc1ccccc1)NC(=O)[C@H](CCCNC(=N)N)NC(=O)[C@H](CCC(N)=O)NC(=O)[C@H](CC(C)C)NC(=O)C(C)(C)NC(=O)[C@H](C)NC(=O)[C@H](CCC(=O)O)NC(=O)[C@H](CCC(=O)O)NC(=O)[C@H](CCCCNC(=O)COCCOCCNC(=O)COCCOCCNC(=O)CC[C@H](NC(=O)CCCCCCCCCCCCCCCCCCC(=O)O)C(=O)O)NC(=O)[C@H](CC(C)C)NC(=O)[C@H](Cc1ccc(O)cc1)NC(=O)[C@H](CO)NC(=O)[C@@H](NC(=O)[C@H](CC(=O)O)NC(=O)[C@H](CO)NC(=O)[C@@H](NC(=O)[C@H](Cc1ccccc1)NC(=O)[C@@H](NC(=O)CNC(=O)[C@H](CCC(=O)O)NC(=O)C(C)(C)NC(=O)[C@@H](N)Cc1c[nH]cn1)[C@@H](C)O)[C@@H](C)O)C(C)C)C(=O)N[C@@H](CCC(=O)O)C(=O)N[C@@H](Cc1c[nH]cn1)C(=O)N[C@@H](CC(C)C)C(=O)N[C@H](C(N)=O)C(C)C", "target": "GLP1R", "observed": "cAMP", "EC50 [nM]": 0.018}
